Published values gathered from unrelated publications.
Each numbered part is a random draw from the data of one study; scales do not carry over between parts. Substitutions count along the parent as printed.
Chain of UniProt Q9Y385 (whole entry, looked up): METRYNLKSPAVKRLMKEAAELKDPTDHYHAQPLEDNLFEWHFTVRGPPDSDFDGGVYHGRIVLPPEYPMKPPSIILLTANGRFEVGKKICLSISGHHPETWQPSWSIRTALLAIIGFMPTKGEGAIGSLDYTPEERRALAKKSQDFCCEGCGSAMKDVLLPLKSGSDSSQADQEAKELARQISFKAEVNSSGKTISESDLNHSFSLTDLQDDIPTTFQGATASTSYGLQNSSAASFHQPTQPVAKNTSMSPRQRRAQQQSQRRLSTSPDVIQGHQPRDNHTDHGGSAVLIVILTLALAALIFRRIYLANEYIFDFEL
Chain of UniProt Q9H832 (whole entry, looked up): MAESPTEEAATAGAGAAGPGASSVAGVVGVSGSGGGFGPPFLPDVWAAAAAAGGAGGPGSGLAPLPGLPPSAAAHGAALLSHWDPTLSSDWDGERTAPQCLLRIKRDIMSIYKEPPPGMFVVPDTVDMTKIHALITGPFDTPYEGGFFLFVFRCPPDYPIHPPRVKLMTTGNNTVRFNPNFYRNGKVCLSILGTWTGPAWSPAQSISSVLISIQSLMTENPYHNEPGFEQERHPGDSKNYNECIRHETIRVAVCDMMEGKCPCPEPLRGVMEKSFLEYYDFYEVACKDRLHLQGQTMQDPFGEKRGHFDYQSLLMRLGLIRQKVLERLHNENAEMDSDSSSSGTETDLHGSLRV
Chain of UniProt Q9Y2X8 (whole entry, looked up): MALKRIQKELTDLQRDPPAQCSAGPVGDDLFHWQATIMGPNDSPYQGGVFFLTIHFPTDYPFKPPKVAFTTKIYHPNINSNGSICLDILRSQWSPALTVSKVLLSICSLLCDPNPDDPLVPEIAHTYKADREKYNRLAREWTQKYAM
Chain of UniProt Q9NPD8 (whole entry, looked up): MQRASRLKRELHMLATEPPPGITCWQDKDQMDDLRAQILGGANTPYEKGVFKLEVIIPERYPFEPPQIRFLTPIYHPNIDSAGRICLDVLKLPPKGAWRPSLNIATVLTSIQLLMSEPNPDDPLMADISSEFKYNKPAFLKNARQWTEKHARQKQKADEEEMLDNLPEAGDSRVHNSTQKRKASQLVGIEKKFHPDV
Chain of UniProt P62837 (whole entry, looked up): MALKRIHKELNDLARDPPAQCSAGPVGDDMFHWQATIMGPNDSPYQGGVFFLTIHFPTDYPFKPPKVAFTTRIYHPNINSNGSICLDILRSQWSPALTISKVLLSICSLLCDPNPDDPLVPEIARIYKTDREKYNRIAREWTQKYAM

Set 1
Target: NFIL3, bZIP domain (human)
Technique: DHFR protein complementation
Sample: yeast
Setting: single substitutions, most at no-binding floor
Relative to: wild-type JUN-FOS pair
Reading: higher = stronger binding
Starting sequence: JUN, bZIP domain (human); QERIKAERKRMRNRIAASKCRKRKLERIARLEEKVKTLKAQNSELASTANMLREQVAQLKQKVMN; partner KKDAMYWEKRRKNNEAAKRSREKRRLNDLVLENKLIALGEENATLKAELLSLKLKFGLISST
Variant	binding fitness [natural log]
L45P	-1.55
R53F	-1.48
I28S	-1.51
S47P	-1.4
T48R	-1.24
K34G	-1.45
S47A	-1.32
E33C	-1.57
N42S	-1.43
Q58P	-1.36
V56N	-1.54
R30Q	-1.49
K39L	-1.51
V56F	-1.3
A29Y	-1.39

Set 2
Target: CCNB3, cyclin fold, Cln2 fusion (human)
Technique: yeast growth competition, sequencing
Sample: yeast
Setting: weak parent motif
Relative to: not given
Reading: higher = stronger binding
Starting sequence: PKMYT1 docking peptide (human); SFEPRNLLSLFED
Variant	normalised enrichment score
R5E	0.789
E12M	0.141
R5Q	0.442
F11G	0.129
L7R	0.0824
L10R	0.46
L7A	0.821
F2K	0.105
L7Q	-0.15
R5A L7A	-0.0517
F2N	-0.103
F2E	0.0429
D13L	0.142
L10T	0.644
L7V	0.349
D13R	0.492
N6L	0.533
N6D	0.471
L8R	0.363
L8D	0.0789
P4T	0.451
F2H	-0.0573
L10D	0.64
P4K	0.523
L8M	0.332

Set 3
Target: ABI1, truncated, D143A, DHFR fusion (Arabidopsis thaliana)
Technique: DHFR PCA, deep sequencing
Sample: yeast
Setting: methotrexate growth selection, single substitutions
Together with: (+)-ABA 4.8 µM
Relative to: wild-type fitted maximum
Reading: higher = stronger binding
Starting sequence: PYL1, truncated, DHFR fusion (Arabidopsis thaliana); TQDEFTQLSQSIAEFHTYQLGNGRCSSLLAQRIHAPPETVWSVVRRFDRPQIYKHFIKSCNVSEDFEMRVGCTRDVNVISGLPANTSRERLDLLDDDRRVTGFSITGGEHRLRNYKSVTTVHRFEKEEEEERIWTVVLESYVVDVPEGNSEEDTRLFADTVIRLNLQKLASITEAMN; partner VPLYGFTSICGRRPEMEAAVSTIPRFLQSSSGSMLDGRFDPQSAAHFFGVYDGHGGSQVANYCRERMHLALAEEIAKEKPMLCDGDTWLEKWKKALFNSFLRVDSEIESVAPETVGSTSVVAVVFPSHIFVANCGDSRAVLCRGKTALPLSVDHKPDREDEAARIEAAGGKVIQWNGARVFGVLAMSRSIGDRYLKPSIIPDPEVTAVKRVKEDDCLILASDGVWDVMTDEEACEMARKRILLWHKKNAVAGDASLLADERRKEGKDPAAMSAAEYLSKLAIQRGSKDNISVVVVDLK
Variant	relative binding score
E128R	66%
Y115N	6.12%
A170W	-15.5%
V145F	-0.847%
N165L	-4.25%
Y18G	16.3%
E139L	15.2%
N61I	81.9%
S9K	83.9%
S27L	6.12%
L82S	3.09%
R99H	74.3%
Q2A	72.2%
T1V	81.5%

Set 4
Molecule: B1 (MKRN1 RING domain)
Technique: yeast two-hybrid
Sample: yeast
Setting: mostly zero background
Relative to: not given
Reading: higher = stronger interaction
B1: MKRN1 RING domain (UniProt Q9UHC7); chain FAVQRSKDMVCGICMEVVYEKANPSERRFGILSNCNHTYCLKCIRKWRSAKQFESKIIKSCPECRITSNFVIPSE
target	lacZ reporter activity
UBE2D2 UBC core domain (UniProt P62837)	0
UBE2D4 UBC core domain (UniProt Q9Y2X8)	0
UBE2J1 UBC core domain (UniProt Q9Y385)	0
UBE2I UBC core domain (UniProt P63279)	0
UBE2T UBC core domain (UniProt Q9NPD8)	0
BIRC6 UBC core domain (UniProt Q9NR09)	0
UBE2Z UBC core domain (UniProt Q9H832)	0

Set 5
Target: Interferon regulatory factor 5, full length, phosphomimetic (IRF5, Homo sapiens, UniProt Q13568-2, residues 1-514, S451D/S453D/S456D/S462D)
Technique: protein-binding microarray
Form: double-stranded DNA, one strand shown
Sample: in vitro
Tested at: 940 nM top
Setting: 60-bp whole probe
Together with: salmon DNA 0.4 mg/ml
Relative to: random background probes
Reading: higher = stronger binding
Constant ends, left off below: GCCTAGCAC … GTCTTGATTCGCTTGACGCTGCTG
Strand	fitted relative affinity
TTAGATTTCGGGTTTCGGTTAGTGCTA	7.07 z-score
TCACTTCTAATATTCATACTGTGCTAG	1.2 z-score
GAACCTTCCCCTCTAGGTTCGTGCTAG	2.23 z-score
TTAGGACTAGGGTTTCGGTTAGTGCTA	4.23 z-score
TTAGGAATGGACTATCGGTTAGTGCTA	-0.161 z-score
GTCGGACTGGGACTGGGGACGTGCTAG	-0.554 z-score
GACGGTCTCGGACCGGGGACGTGCTAG	0.559 z-score
TTTCCTATGTCATTTACATTGTGCTAG	1.16 z-score
ATTTTTTTGTAATCGAAATCTGTGCTA	0.0128 z-score
GTGCTTCACAGAGGCGGCTGGTGCTAG	-0.586 z-score
AGAGCTGTCCTTTGCAACAGGTGCTAG	-0.686 z-score
TTAGGTTTCGGATATCGGTTAGTGCTA	9.03 z-score
AGAGCCTGGGGATGCAGAGAGTGCTAG	-0.345 z-score
TCATCTAGGTTTTCTGGAACTGTGCTA	0.0933 z-score
TCATCTTTACTGCTCCAACTGTGCTAG	1.02 z-score
GACCATCTCATATAAATAGGCGTGCTA	0.538 z-score
TTAGCTTCCCTTTTCCTTTAGTGCTAG	1.25 z-score
TTAGGTTTTCTTTCCCTTTAGTGCTAG	1.54 z-score
GCCGAACTGAGTATCGAGACGTGCTAG	2 z-score

Some of these lines once more (set 2):
Variant	normalised enrichment score
L10D	0.64
R5A L7A	-0.0517
L8D	0.0789
D13L	0.142
F2E	0.0429
L7Q	-0.15
E12M	0.141
P4T	0.451
L7R	0.0824
R5E	0.789
F2H	-0.0573
L7A	0.821
L10T	0.644
